# Results pooled from the literature.
# “And” joins repeats or separate records; there may be more than shown. ± gives the spread as reported.
# Aryl hydrocarbon receptor: Aryl hydrocarbon receptor (Danio rerio, UniProt Q9YGV3)
# ABL1 F317I: Tyrosine-protein kinase ABL1 (ABL1, Homo sapiens, UniProt P00519, F317I)
# Sequence of UniProt P00519 (whole entry, unmodified, looked up): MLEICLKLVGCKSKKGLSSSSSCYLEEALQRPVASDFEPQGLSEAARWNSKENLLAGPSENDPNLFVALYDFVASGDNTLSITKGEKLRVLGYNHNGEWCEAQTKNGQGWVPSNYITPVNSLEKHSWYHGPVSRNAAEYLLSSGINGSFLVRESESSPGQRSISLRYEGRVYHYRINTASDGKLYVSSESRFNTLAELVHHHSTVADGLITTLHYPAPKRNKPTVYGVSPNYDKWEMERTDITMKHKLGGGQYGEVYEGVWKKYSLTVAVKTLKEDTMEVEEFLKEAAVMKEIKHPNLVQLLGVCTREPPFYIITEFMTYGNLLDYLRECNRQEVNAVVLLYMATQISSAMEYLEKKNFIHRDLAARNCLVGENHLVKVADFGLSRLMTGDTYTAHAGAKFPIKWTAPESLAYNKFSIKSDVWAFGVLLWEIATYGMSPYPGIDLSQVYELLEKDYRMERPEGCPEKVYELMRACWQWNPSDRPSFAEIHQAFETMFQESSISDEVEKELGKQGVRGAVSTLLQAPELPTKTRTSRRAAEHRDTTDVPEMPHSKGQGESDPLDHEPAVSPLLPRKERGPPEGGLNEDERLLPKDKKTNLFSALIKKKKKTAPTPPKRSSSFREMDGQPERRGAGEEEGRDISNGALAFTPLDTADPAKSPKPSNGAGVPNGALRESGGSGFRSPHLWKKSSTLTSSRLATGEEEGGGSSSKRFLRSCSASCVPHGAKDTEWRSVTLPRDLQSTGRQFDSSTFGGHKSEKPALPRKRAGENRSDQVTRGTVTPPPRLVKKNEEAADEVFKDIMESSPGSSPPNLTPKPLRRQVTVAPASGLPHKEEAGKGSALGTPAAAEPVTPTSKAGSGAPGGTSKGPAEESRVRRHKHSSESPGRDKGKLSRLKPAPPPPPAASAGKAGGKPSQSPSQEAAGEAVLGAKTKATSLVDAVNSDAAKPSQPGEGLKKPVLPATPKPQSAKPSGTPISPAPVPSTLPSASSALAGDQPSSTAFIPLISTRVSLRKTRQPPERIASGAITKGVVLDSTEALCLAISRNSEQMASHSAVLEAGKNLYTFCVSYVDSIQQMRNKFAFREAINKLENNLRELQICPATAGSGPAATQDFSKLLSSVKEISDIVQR
# NF-kappa-B inhibitor alpha: NF-kappa-B inhibitor alpha (Homo sapiens, UniProt P25963)
# Sequence of UniProt P51575 (whole entry, unmodified, looked up): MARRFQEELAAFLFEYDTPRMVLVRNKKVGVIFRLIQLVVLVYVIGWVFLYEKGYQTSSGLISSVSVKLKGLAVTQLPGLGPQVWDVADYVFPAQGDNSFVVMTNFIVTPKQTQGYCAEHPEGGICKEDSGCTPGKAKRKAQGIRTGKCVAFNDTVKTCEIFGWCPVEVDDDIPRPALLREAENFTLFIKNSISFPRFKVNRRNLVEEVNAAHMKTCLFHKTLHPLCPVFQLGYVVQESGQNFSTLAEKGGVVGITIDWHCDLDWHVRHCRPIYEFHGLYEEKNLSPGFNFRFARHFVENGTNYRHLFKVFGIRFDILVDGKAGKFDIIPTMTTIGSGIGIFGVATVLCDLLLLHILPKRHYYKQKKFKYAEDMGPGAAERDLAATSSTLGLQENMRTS
# Sequence of UniProt Q01105 (whole entry, unmodified, looked up): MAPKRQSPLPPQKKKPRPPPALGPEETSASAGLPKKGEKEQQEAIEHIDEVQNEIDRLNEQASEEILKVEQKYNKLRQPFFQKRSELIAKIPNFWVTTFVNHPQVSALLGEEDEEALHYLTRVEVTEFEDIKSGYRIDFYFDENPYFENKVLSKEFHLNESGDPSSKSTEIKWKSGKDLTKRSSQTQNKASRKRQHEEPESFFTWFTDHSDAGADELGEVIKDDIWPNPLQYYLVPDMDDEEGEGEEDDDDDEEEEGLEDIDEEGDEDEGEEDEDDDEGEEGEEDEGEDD
# Sequence of UniProt P25963 (whole entry, looked up): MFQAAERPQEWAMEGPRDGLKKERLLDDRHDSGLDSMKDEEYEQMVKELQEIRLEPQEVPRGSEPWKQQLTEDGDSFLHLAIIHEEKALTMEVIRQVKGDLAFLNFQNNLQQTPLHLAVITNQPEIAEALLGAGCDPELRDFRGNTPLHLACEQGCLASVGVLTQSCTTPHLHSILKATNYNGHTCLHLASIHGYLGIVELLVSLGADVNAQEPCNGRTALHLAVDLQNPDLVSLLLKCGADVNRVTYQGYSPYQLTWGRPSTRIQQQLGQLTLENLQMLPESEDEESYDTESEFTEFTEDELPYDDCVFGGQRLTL
# Sequence of UniProt P11388 (whole entry, looked up): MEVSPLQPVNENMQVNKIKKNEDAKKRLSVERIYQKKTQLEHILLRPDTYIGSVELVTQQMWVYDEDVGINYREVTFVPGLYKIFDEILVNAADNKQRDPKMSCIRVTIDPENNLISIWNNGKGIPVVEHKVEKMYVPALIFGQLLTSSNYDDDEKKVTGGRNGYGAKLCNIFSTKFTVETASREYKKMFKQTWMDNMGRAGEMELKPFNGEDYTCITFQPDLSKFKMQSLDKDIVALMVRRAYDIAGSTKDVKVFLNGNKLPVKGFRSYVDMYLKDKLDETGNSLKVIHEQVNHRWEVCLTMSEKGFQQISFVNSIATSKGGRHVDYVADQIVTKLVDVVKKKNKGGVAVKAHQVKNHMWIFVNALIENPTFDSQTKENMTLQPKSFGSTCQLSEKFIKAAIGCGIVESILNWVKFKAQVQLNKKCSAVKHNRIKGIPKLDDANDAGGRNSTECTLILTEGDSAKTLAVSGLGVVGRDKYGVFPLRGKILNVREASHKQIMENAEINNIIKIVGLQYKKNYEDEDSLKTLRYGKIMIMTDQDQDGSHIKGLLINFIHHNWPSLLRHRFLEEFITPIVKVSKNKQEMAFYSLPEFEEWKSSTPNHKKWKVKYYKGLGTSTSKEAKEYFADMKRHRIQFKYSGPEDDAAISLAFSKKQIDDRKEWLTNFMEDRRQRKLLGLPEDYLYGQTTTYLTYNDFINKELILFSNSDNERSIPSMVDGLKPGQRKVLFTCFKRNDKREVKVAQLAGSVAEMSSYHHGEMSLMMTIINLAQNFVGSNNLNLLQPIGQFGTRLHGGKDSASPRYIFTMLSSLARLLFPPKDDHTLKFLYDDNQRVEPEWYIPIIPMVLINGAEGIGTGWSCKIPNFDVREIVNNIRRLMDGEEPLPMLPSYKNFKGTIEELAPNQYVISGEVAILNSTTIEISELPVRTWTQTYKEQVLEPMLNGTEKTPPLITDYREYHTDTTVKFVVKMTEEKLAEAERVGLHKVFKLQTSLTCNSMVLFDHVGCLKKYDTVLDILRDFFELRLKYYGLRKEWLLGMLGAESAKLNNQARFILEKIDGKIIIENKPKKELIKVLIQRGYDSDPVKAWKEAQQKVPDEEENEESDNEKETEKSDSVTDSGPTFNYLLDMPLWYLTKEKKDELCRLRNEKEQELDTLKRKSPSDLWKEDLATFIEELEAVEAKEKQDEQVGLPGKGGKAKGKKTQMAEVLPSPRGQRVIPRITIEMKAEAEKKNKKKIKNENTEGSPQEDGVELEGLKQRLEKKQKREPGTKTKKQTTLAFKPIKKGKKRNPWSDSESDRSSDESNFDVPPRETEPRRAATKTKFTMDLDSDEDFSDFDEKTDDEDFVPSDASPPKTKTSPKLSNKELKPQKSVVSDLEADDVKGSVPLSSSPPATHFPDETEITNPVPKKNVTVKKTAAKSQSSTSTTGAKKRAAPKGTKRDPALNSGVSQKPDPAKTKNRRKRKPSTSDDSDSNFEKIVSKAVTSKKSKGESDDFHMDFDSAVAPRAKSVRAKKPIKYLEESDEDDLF
# Sequence of UniProt P25090 (whole entry, looked up): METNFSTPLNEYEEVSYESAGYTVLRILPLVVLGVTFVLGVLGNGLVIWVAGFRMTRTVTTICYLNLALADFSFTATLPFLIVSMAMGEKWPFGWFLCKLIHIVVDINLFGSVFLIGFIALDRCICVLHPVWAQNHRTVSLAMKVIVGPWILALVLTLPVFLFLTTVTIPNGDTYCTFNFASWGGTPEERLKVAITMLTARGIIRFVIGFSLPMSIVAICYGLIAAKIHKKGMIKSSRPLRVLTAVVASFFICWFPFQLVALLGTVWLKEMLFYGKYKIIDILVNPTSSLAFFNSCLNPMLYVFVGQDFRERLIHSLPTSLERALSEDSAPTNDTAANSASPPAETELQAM
# Sequence of UniProt P35869 (whole entry, looked up): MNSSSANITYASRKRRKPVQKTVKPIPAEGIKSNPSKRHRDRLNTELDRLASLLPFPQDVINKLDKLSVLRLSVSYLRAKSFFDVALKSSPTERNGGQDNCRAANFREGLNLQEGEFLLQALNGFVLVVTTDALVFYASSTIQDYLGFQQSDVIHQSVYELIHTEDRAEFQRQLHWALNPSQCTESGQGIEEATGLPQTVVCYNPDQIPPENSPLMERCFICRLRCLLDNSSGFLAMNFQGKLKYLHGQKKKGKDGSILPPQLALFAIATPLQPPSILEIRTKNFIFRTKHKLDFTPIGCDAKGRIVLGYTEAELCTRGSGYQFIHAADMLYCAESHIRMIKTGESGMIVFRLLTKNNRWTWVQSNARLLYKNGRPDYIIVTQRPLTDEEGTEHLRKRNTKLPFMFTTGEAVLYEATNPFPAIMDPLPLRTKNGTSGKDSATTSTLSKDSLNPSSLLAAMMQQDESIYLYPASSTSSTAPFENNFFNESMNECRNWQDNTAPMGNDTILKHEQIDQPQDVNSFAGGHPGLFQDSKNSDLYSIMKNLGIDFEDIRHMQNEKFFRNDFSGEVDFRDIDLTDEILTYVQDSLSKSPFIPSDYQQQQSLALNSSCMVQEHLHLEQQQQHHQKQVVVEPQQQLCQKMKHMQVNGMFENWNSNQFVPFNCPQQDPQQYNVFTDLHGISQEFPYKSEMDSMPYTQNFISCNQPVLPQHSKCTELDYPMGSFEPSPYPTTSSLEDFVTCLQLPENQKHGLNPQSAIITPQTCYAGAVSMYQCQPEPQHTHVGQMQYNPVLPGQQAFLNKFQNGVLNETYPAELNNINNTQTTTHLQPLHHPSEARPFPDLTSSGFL
Compound,target,assay,test system,conditions,how to read,measurement,value
CCCCCCCCCCCCC/C=C/[C@@H](O)[C@H](CO)NC(=O)CCCCCCCCCCCCCCCCCCCCC,"Protein SET (SET, Homo sapiens, UniProt Q01105)","lipid binding, GFP pull-down LC-MS/MS",A549 overexpressing GFP-tagged protein,ER-targeted construct,reference: eluate plus flow-through,lipid fraction bound,4.1%
C=CC(=O)N1CCC[C@@H](n2nc(-c3ccc(Oc4ccccc4)cc3)c3c(N)ncnc32)C1,"ATM (Homo sapiens, UniProt Q13315)",,,1 µM,,remaining activity,203%
CC(=C/C(=O)O)/C=C/C=C(\C)C1C=C2C(C)(C)CCCC2(C)O1 (centres unmarked),"Rhodopsin (RHO, Homo sapiens, UniProt P08100, E181K)","ER retention, immunostaining co-localization, measured: opsin with calnexin",COS-7 transfected E181K,0.10 µM,,Pearson correlation coefficient,0.81
Nc1ccc2ccc3cccc4ccc1c2c34,Aryl hydrocarbon receptor,"reporter gene, agonist, luciferase reporter",ZF-4,13.72 µM,reference: vehicle control,fold change,1.3
Cn1c2c(Cl)c(Cl)ccc2c2cc(N)[nH]c(=O)c21,"RPS6KA2 (Homo sapiens, UniProt Q15349)",thermal shift,,"10 µM, 2 µM protein",higher = stronger binding,ΔTm,1 °C
Nc1ncnc2c1ncn2[C@@H]1O[C@H](COP(=O)(O)OP(=O)(O)NP(=O)(O)O)[C@@H](O)[C@H]1O,"Cell cycle histidine kinase CckA, CA domain (Caulobacter vibrioides, UniProt Q9X688)",ITC,,together with: c-di-GMP 100 µM,,ΔS,11.6 cal/mol/K
CN(CCCC(F)(F)F)c1nccc(-c2cnn3ncccc23)n1,"ABL1 (Homo sapiens, UniProt P00519, Q252H)",KINOMEscan,,1 µM,reference: control,remaining binding,80%
C#Cc1cccc(Oc2ccc(-c3nn([C@@H]4CCCN(C(=O)C=C)C4)c4ncnc(N)c34)cc2)c1,"AHR (Homo sapiens, UniProt P35869)",ABPP-SILAC,,"1 µM, 1 h",reference: DMSO,SILAC ratio,20
COc1cc(Nc2ncc3c(n2)-c2ccc(Cl)cc2C(c2c(F)cccc2OC)=NC3)ccc1C(=O)O,STK4,kinase activity,,1 µM,,remaining activity,96%
O=C(C#Cc1ccc(F)c(F)c1)c1cccc(Cl)c1,"mvfR (Pseudomonas aeruginosa, UniProt Q9I4X0)",receptor binding,,"concentration not given, 1.5 h, together with: PQS at 1:1 ratio",reference: control,binding,80%
O=C(O)C1CCCNC1 (centres unmarked),"SLC6A6 (Homo sapiens, UniProt P31641, Y138A)","binding, microscale thermophoresis",,"46.3 nM, fitted curve",higher = more binding,fraction bound,0.00229
Cc1cnn2ncc(-c3ccnc(N(C)C)n3)c2c1,ABL1 F317I,KINOMEscan,,1 µM,,remaining binding,100% and 69%
Nc1nnc(-c2ccccc2O)cc1N1CCN(Cc2ccc(OCCOCCNc3cccc4c3C(=O)N(C3CCC(=O)NC3=O)C4=O)c(F)c2)CC1 (centres unmarked),"SMARCA2 (Homo sapiens, UniProt P51531)",immunohistochemistry,"mouse, NCI-H322 xenograft, tumour",dose not given,reference: vehicle,reduction in positive cells,62%
F[C@@H]1CCN(c2nccc(-c3cnn4ncccc34)n2)C1,ABL1 F317I,KINOMEscan,,1 µM,,remaining binding,100%
CC(=O)OCc1nn(C)c2nc(N)[nH]c(=O)c2c1=O,"folP (Bacteria, UniProt P0AC13)",CETSA HiBiT,"Escherichia coli, cell lysate",concentration not given,reference: DMSO,melting temperature shift,15.1 °C
c1coc(-c2n[nH]cc2-c2ccnc3ccccc23)c1,"Serine/threonine-protein kinase ATG1 (ATG1, Candida albicans, UniProt Q5A649)","kinase binding, MIB/MS competition",Candida albicans lysate,1 µM,"reference: DMSO, negative = stronger binding",log2 fold change,-0.17
NC/C(=C\F)COc1cccc(Cn2c(=S)[nH]c(=O)c3[nH]cnc32)c1,"Myeloperoxidase (MPO, Homo sapiens, UniProt P05164)","H2O2 consumption, inhibitor, H2O2 electrode",,"0.028 µM, 0.3 s",,H2O2 concentration,-0.176 µM
CC(=O)N[C@H](C(=O)N1C[C@H](O)C[C@H]1C(=O)NCc1ccc(-c2scnc2C)cc1)C(C)(C)SCCCCCCNC(=O)C[C@@H]1N=C(c2ccc(Cl)cc2)c2c(sc(C)c2C)-n2c(C)nnc21,"BRD2/VHL, BD2; with VCB (Homo sapiens, UniProt P25440+P40337)","ternary complex binding, ITC",,"25 °C, together with: VHL-ElonginB-ElonginC titrated into compound:PROTAC:Brd2^BD2 complex",,ΔH,-7.2 ± 0.6 kcal/mol
Cc1cccc2c1ccc1cc(C(C)C)ccc12,Aryl hydrocarbon receptor,"reporter gene, agonist, luciferase reporter",ZF-4,30000 µM,reference: vehicle control,fold change,0.585
N#Cc1ccc(C[C@@H](Nc2ncc(-c3ccc(F)cc3)o2)C(=O)N2CCc3ccccc32)cc1,"FPR2 (Homo sapiens, UniProt P25090)",cell-based,,concentration not given,,activity,inactive
N#Cc1ccc(C(=O)Nc2cccc3[nH]ccc23)cc1,"Alpha-synuclein (SNCA, Homo sapiens, UniProt P37840)",ThT kinetics,,"concentration not given, together with: SNCA 2 µM",,fibril formation,inhibited
CC[C@H](C)[C@H](NC(=O)[C@H](CCCNC(=N)N)NC(=O)[C@H](Cc1c[nH]cn1)NC(=O)[C@H](CCCNC(=N)N)NC(=O)[C@H](CC(=O)O)NC(=O)[C@@H](N)CC(=O)O)C(=O)N[C@@H](CCC(=O)O)C(=O)N[C@@H](CCC(=O)O)C(=O)N[C@@H](CCCCN)C(=O)N[C@@H](CCCNC(=N)N)C(=O)N[C@@H](CCCCN)C(=O)N[C@@H](CCCNC(=N)N)C(=O)N[C@H](C(=O)N[C@@H](Cc1ccc(O)cc1)C(=O)N[C@@H](CCC(=O)O)C(=O)N[C@H](C(=O)N[C@@H](Cc1ccccc1)C(=O)N[C@@H](CCCCN)C(=O)N[C@@H](CO)C(=O)N[C@H](C(=O)N[C@@H](CCSC)C(=O)N[C@@H](CCCCN)C(=O)N[C@@H](CCCCN)C(=O)N[C@@H](CO)C(=O)N1CCC[C@H]1C(=O)N[C@@H](Cc1ccccc1)C(=O)N[C@@H](CC(N)=O)C(=O)NCC(=O)N1CCC[C@H]1C(=O)O)[C@@H](C)CC)[C@@H](C)O)[C@@H](C)O,NF-kappa-B inhibitor alpha,"binding, ITC",,"293 K, 150 mM NaCl",,-TΔS,-3.9 ± 0.2 kcal/mol
COc1ccc2c(=O)c(Oc3ccccc3)c(C)oc2c1OC,"Cullin-1, C-terminal domain with ROC1 (Homo sapiens, UniProt Q13616)",inhibitor,,up to 80 µM,,E3 ligase activity,no inhibition
Cc1cc2ccccc2c2ccc3ccccc3c12,Aryl hydrocarbon receptor,"reporter gene, agonist, luciferase reporter",ZF-4,1111.11 µM,reference: vehicle control,fold change,4.43
CC[C@@H]1[C@H](F)C(=O)N[C@@H]1COc1nccc2cc(C(N)=O)c(OC)cc12,"Aurora kinase A (AURKA, Homo sapiens, UniProt O14965)","ATP probe binding, KiNativ profiling, measured: Lys2 probe site",THP-1 cell lysate,0.2 mM,,inhibition,2.8%
CN1C(=O)/C(=C2\Nc3ccccc3\C2=N/O)c2ccc(Br)cc21,Aryl hydrocarbon receptor,"reporter gene, agonist, luciferase reporter",ZF-4,0.00128 µM,reference: vehicle control,fold change,1.19
CCN1CCC2(CC1)NC(=O)c1c(c3ccc(Cl)c(Cl)c3n1C)C2C#N (racemic),"Serine/threonine-protein kinase VRK3 (VRK3, Homo sapiens, UniProt Q8IV63)","thermal stability, thermal shift",,10 µM,higher = stronger binding,delta Tm,-0.1 °C
O=C(O)c1ccc(Nc2ncc3c(n2)-c2ccc(Cl)cc2C(c2c(F)cccc2F)=NC3)cc1,Aurora-A(h),kinase activity,,1 µM,,remaining activity,0%
Nc1ncnc2c1ncn2[C@@H]1O[C@H](COP(=O)(O)CP(=O)(O)OP(=O)(O)O)[C@@H](O)[C@H]1O,"P2X purinoceptor 1 (P2RX1, Homo sapiens, UniProt P51575, K215A)",calcium influx,,3.16 µM,reference: ionomycin response,calcium influx,86.3% and 80.6% and 88.7%
CCCCC[S+]([O-])c1n[nH]c(N)n1 (centres unmarked),"DDB1- and CUL4-associated factor 7 (Homo sapiens, UniProt P61962)","binding, affinity selection mass spectrometry",,,reference: other proteins in batch,log fold enrichment,-0.0478
CCCCCCCCCCCCC/C=C/[C@@H](O)[C@H](CO)NC(=O)CCCCCCCCCCCCCCC,"Protein SET (SET, Homo sapiens, UniProt Q01105, Y135C)","lipid binding, GFP pull-down LC-MS/MS",A549 overexpressing GFP-tagged protein,,reference: eluate plus flow-through,lipid fraction bound,5.5%
O=c1nc(SCc2cc(F)cc(C(F)(F)F)c2)nc(SCc2ccc3nc(Cl)ccc3c2)[nH]1,"TOP2A (Homo sapiens, UniProt P11388)",ATPase activity,,"15.6 µM, together with: ATP 0.5 mM",,ATP hydrolysis rate,1.94 µM/min and 1.45 µM/min
NCCCC[C@H](N)C(=O)O,"Lysine--tRNA ligase (KARS1, Homo sapiens, UniProt Q15046)",substrate,,,,Km,22.9 ± 3.72 µM
CCCCCCCCCCCCC/C=C/[C@@H](O)[C@H](CO)NC(=O)CCCCCCCCCCCCCCCCCCC,"Protein SET (SET, Homo sapiens, UniProt Q01105, K222D)","lipid binding, GFP pull-down LC-MS/MS",A549 overexpressing GFP-tagged protein,,reference: eluate plus flow-through,lipid fraction bound,11%
CC[C@H](C)[C@H](NC(=O)[C@H](CCCNC(=N)N)NC(=O)[C@H](Cc1c[nH]cn1)NC(=O)[C@H](CCCNC(=N)N)NC(=O)[C@H](CC(=O)O)NC(=O)[C@H](CC(=O)O)NC(=O)[C@@H](NC(=O)[C@H](CC(=O)O)NC(=O)[C@@H]1CCCN1C(=O)[C@@H](N)CC(C)C)[C@@H](C)O)C(=O)N[C@@H](CCC(=O)O)C(=O)N[C@@H](CCC(=O)O)C(=O)N[C@@H](CCCCN)C(=O)N[C@@H](CCCNC(=N)N)C(=O)N[C@@H](CCCCN)C(=O)N[C@@H](CCCNC(=N)N)C(=O)N[C@H](C(=O)N[C@@H](Cc1ccc(O)cc1)C(=O)N[C@@H](CCC(=O)O)C(=O)N[C@H](C(=O)N[C@@H](Cc1ccccc1)C(=O)N[C@@H](CCCCN)C(=O)N[C@@H](CO)C(=O)N[C@@H](C)C(=O)N[C@@H](CCSC)C(=O)N[C@@H](CCCCN)C(=O)N[C@@H](CCCCN)C(=O)N[C@@H](CO)C(=O)N1CCC[C@H]1C(=O)N[C@@H](Cc1ccccc1)C(=O)N[C@@H](CC(N)=O)C(=O)NCC(=O)N1CCC[C@H]1C(=O)O)[C@@H](C)O)[C@@H](C)O,NF-kappa-B inhibitor alpha,"binding, ITC",,"pH 7.5, 293 K, 50 mM NaCl",,ΔG,-8.4 ± 0.02 kcal/mol

# Repeated from above:
Compound,target,assay,test system,conditions,how to read,measurement,value
O=C(O)c1ccc(Nc2ncc3c(n2)-c2ccc(Cl)cc2C(c2c(F)cccc2F)=NC3)cc1,Aurora-A(h),kinase activity,,1 µM,,remaining activity,0%
Nc1ncnc2c1ncn2[C@@H]1O[C@H](COP(=O)(O)CP(=O)(O)OP(=O)(O)O)[C@@H](O)[C@H]1O,"P2X purinoceptor 1 (P2RX1, Homo sapiens, UniProt P51575, K215A)",calcium influx,,3.16 µM,reference: ionomycin response,calcium influx,86.3% and 80.6% and 88.7%
